Published values from different studies.
Every numbered part comes from another study and shows a few of its results, in no order.

Set 1 — technique: RNA Bind-n-Seq; form: RNA; matrix: in vitro; concentration: not given; setting: 4-mer, random 30-nt RNA, single round; added: RocA, ADP, phosphate; relative to: input library; reading: higher = stronger binding
Target: Eukaryotic initiation factor 4A-I (EIF4A1, Homo sapiens, UniProt P60842, residues 1-406, full length assumed)
Chain of UniProt P60842 (whole entry, looked up): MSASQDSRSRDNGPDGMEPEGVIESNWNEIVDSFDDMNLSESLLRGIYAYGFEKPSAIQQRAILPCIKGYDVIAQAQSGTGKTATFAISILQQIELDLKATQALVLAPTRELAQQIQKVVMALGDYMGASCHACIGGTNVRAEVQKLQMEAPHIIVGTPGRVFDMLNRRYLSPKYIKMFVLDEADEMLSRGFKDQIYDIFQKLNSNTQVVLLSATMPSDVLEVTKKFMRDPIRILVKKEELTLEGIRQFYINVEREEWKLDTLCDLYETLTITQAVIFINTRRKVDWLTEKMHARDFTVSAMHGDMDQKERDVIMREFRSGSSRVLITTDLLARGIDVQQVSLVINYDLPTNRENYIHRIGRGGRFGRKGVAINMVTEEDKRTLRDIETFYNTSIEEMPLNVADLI
Sequence | 4-mer enrichment [fold]
UUUA | 0.959
GGGC | 0.832
CUAA | 0.727
UGAU | 0.878
GGAU | 0.941
CGGG | 0.963
CUGG | 0.837
AUGU | 0.935

Set 2 — technique: protein-binding microarray; form: double-stranded DNA, one strand shown; matrix: in vitro; concentration: 940 nM top; setting: 60-bp whole probe; added: salmon DNA 0.4 mg/ml; relative to: random background probes; reading: higher = stronger binding; constant ends, left off below: GCCTAGCAC … GTCTTGATTCGCTTGACGCTGCTG
Target: Interferon regulatory factor 5, full length, phosphomimetic (IRF5, Homo sapiens, UniProt Q13568-2, residues 1-514, S451D/S453D/S456D/S462D)
Sequence | fitted relative affinity [z-score]
GAGACTTTGCTCTGTGCATAGGTGCTA | -0.282
GACGGTTTCGGCTCCGGGACGTGCTAG | 8.76
TTAGGTCTCGGTCTCGTTTAGTGCTAG | 4.83
GAACATACTAATTTCCATTTGTGCTAG | 0.639
TACTCTTGTGACTATGGACCGTGCTAG | 0.249
TTAGGTCTGGGTTTCGGTTAGTGCTAG | 6.79
TCAATGATCCAGTTTTACACTGTGCTA | -0.0109
ATGAGCCTCTGTTTTGAGCAGTGCTAG | -0.498

Set 3 — target: BIRC6 UBC core domain (UniProt Q9NR09); technique: yeast two-hybrid; matrix: yeast; setting: mostly zero background; relative to: not given; reading: higher = stronger interaction
B1: TRIM48 RING domain (UniProt Q8IWZ4); chain ISQVFQRELTCPICMNYFIDPVTIDCGHSFCRPCFYLNWQDIPILTQCFECIKTIQQRNLKT
B2: RNF24 RING domain (UniProt Q9Y225); chain KVKELNLHELCAVCLEDFKPRDELGICPCKHAFHRKCLIKWLEVRKVCPLCNMPVLQLAQLH
B3: Ltn1 RING domain (UniProt Q6A009); chain VDKRFEGVEDCMICFSVIHGFNYSLPKKACRTCKKKFHSACLYKWFTSSNKSTCPLCRETFF
B4: TRIM22 RING domain (UniProt Q8IYM9); chain KEVKMSPQEGQKRDVCEHHGKKLQIFCKEDGKVICWVCELSQEHQGHQTFRINEVVKECQEK
B5: DTX1 RING domain (UniProt Q86Y01); chain QKVKNPPDEDCTICMERLVTASGYEGVLRHKGVRPELVGRLGRCGHMYHLLCLVAMYSNGNKDGSLQCPTCKAIYGEKTGTQ
B6: RNF135 RING domain (UniProt Q8IUD6); chain PVWLAEDDLGCIICQGLLDWPATLPCGHSFCRHCLEALWGARDARRWACPTCRQGAAQQPHLR
Residues (chain): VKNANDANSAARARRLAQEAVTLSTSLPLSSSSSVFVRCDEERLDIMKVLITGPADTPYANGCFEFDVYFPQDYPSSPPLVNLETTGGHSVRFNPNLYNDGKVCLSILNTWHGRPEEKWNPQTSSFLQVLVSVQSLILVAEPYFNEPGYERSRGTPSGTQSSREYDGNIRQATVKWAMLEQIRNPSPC
Sequence | lacZ reporter activity
B1 (TRIM48 RING domain) | 0
ALDRLEKLLRCSRCTNILREPVCLGGCEHIFCSNCVSDCIGTGCPVCYTPAWIQDLKI (BARD1 RING domain (UniProt Q99728)) | 0
B2 (RNF24 RING domain) | 0
B3 (Ltn1 RING domain) | 0
B4 (TRIM22 RING domain) | 0
B5 (DTX1 RING domain) | 0
NTAPSLTVPECAICLQTCVHPVSLPCKHVFCYLCVKGASWLGKRCALCRQEIPEDFLDK (RNF146 RING domain (UniProt Q9NTX7)) | 0
B6 (RNF135 RING domain) | 0

Single results of other studies
Sequence | target | observed | form | concentration | measurement | result
MPDTLFEGV | HLA class I histocompatibility antigen, A alpha chain, allele A*25:01 (Homo sapiens, UniProt P04439) | peptide-MHC binding | peptide | concentration not given | binding | inactive

A few entries again (set 2):
Sequence | fitted relative affinity [z-score]
GACGGTTTCGGCTCCGGGACGTGCTAG | 8.76
GAGACTTTGCTCTGTGCATAGGTGCTA | -0.282
